Experimental data gathered from unrelated publications.
Each numbered part is a random draw from the data of one study; scales do not carry over between parts.

Set 1
Target: Transcriptional repressor CTCF (CTCF, Homo sapiens, UniProt P49711, residues 1-727, full length assumed)
Method: protein-binding microarray
Molecule type: double-stranded DNA, one strand shown
Sample: in vitro
Tested at: not given
Setting: k-mer, scored over probes, only values ≥0.25
Direction: higher = stronger binding
Construct (chain): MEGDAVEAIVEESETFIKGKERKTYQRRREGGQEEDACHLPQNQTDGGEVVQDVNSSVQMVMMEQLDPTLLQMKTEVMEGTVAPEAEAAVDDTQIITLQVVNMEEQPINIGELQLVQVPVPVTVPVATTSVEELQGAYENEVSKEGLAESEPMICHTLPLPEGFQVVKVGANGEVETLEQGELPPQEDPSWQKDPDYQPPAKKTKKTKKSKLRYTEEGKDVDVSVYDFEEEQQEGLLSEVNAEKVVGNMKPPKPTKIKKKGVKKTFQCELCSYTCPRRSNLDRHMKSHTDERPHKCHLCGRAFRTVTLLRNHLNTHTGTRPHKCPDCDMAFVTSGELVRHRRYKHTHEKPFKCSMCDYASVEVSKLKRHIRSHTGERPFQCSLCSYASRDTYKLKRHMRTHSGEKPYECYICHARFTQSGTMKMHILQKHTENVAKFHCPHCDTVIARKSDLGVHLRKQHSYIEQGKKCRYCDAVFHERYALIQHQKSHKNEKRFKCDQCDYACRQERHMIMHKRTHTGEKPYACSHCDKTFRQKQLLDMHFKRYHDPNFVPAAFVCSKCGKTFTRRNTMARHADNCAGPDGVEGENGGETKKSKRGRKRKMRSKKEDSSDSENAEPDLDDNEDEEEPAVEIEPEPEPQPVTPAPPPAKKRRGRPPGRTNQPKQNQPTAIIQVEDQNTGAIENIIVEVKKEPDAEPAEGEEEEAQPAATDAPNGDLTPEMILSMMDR
The E-score of `CGCATACA` is reported as 0.292.
`CATACACA` gave an E-score of 0.273.
With `ACATCACT` the E-score was 0.29.
`AATACGTA` gave an E-score of 0.293.
With `GAAATTAC` the E-score was 0.263.
`AATATACT` gave an E-score of 0.304.
`ATTTGTAA` gave an E-score of 0.27.
The E-score of `AATAATAG` is reported as 0.276.
`ACATTGTA` has an E-score of 0.271.
`GGGAATGA` has an E-score of 0.25.
`ACATGTAT` gave an E-score of 0.379.
`ATTAGCGC` has an E-score of 0.318.
For `AAAATGTA`, the E-score was 0.278.
With `AGGTAATA` the E-score was 0.269.
For `AGGCGTAT`, the E-score was 0.261.
With `GTTAATTA` the E-score was 0.275.
`CCCCCTAG` has an E-score of 0.395.
`ACGTATTA` has an E-score of 0.263.
`AAACGCCA` gave an E-score of 0.252.

Set 2
Target: RING finger protein unkempt homolog, zinc fingers 1-6, SBP tag (UNK, Homo sapiens, UniProt Q9C0B0, residues 30-357)
UniProt Q9C0B0, sequence (30-357, looked up): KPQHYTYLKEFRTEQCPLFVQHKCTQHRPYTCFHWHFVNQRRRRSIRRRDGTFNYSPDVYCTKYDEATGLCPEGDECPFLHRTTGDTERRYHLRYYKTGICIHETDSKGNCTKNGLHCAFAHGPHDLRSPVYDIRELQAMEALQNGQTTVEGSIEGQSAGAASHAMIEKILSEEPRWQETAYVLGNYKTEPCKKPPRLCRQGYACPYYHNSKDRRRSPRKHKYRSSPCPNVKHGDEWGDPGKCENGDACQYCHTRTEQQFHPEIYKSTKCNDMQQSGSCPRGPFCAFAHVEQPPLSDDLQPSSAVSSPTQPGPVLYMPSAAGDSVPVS
Method: RNA Bind-n-Seq
Molecule type: RNA
Sample: in vitro
Tested at: 100 nM
Setting: RNA with constant flanks, vertebrate orthologous sites, ends assumed
Baseline: input RNA pool
Direction: higher = stronger binding
Constant ends, left off below: GGGAGUUCUACAGUCCGACGAUC … CAACAGAGGAUUGAGCAUCA
`ACAUGCGUGAGCUUCUCUGCAGUUUAAGACGCUUCCUUUGGUUCCUCACAUAUCUCAUCCUAUUGACUUACCUAUUUUUUAAAAAUAGCAGUAUAAACUCAAAGUGGACUUAACACAGUG` gave a bound/input enrichment of 0.676 ratio.
For `UUACAGUCAUUGAUGGACUCUAUUUUUUUAUUAUUACUUGGACCUUGGUCGUUUUUAUACUAGCAAAAUGUCUUGUUUUAAUUUGUGUUUUUUUGGGGGGAGGGAGUGAACUUGCUGAUU`, the bound/input enrichment was 2.47 ratio.
The bound/input enrichment of `UAUAAUUAUGAAAAUCUAAAGGAUUUUUAAUGUUUAAUUUCCCCCAGCAUCUAUAUUAAGACCUCUUUUUUCCAGGCAGAUCAUUCAGAGUGUGCGAGUGUGUGUGCACAUGUUACAAAG` is reported as 0.535 ratio.
`AUUAUUCAUUUGAUUAAAAUUAUCUAAAAUAAGAAGUUACCGUUUAUGUCUGCUUUCAGACAGCCCUCCUGUUUUUGGUUUUUUCCUUUUGGCAGGUGUCUGUUGUGUUCUGUUAUACAU` gave a bound/input enrichment of 0.356 ratio.
`AUUAUAGCAAAAAGAGCCAAGCAGUAGCAUUGUGGGGUUUUUUGUAAAUGUAAAAAUACUUAGAUCCAGACUUUGUUUCCUUCAAUUUUAAAAAUAAAAAAUACCUCAGUGCUAUGUUUU` has a bound/input enrichment of 0.649 ratio.
The bound/input enrichment of `CCCCGUUUUUAAAUGCUCUUUUGAUGCUUCCAGCAGCACCAUUUGUACAGUUUUUCUCUAAAAACAAAAAUGUUGAUUCAAAUUUCUUGUAUUUAAGUUUAAAUUGUUACAACAUUUUAG` is reported as 0.193 ratio.
For `CUGAAUAUUCUUAACAGUCCAAGAUGUUAUAAAAAUAUAUACCUGAAUUAUAAGAGCUGUUAGCAGUUUUUUUUUAAGCAUUUGUUUUGGGUACAAGGCAUAUCUGAAAUUUUAUAAACC`, the bound/input enrichment was 0.426 ratio.
`GGCAUCUGAUUGGAUGAAGACCGUCCCGAGUUACAACCAAACAAACAGUUCCAUGGACUUUAGAAAUUACAUGAUGAGAGAUGAGAAUCUGGAACCACUGCCAAAAAACUGGGAAAUGGC` gave a bound/input enrichment of 0.503 ratio.
The bound/input enrichment of `AAUUAUAGCAAAAGAGCCAAGCAGUAGCAUUGAGUUUUUUUUUAUAAAUGUAAAAUUAAUUAGAUUCAGACUUUGUUUCCUUAUUCAGUUUUAAAAAUAAAAAAUACCUCAGUGCUGUUU` is reported as 0.438 ratio.
With `GUGAGGGUCUGCUGACCACUCGCUGUUACGUCUGGUAUCUGUAAACGCUCUUUUUGUUCUUAGUCUUUUUCUUGUAUAAUUGAUACUCUUUAAAAUUGUUAAUGUAUAACAGGGCUCAUG` the bound/input enrichment was 2.33 ratio.
`GUUUAGAUAAUUCUUUUUAUUUUUUUUCCUUUUCCCUUAAUCCUUUUUUAUUUUUAAAAAUAGUUCUUUUGUAAUGUGGUGUUCAAAAUGAAAAUUGAAUACUGGCUCUCCAUCUCUUUA` gave a bound/input enrichment of 7 ratio.

Set 3
Target: RNA binding protein fox-1 homolog 2, RRM domain, GST-SBP tag (RBFOX2, Homo sapiens, UniProt O43251-10, residues 100-194)
Method: RNA Bind-n-Seq
Molecule type: RNA
Sample: in vitro
Tested at: 365 nM
Setting: natural RNA segment, single round, ends assumed
Baseline: no-protein control
Direction: higher = stronger binding
Constant ends, left off below: GGGAGUUCUACAGUCCGACGAUC … UGGAAUUCUCGGGUGCCAA
Residues (chain): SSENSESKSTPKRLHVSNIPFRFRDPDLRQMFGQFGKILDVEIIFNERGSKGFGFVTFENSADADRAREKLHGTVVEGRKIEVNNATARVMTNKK
Under “RBNS enrichment (R)”, `ACACUGGGCACUUUUGGAAAUAAUGUUUAAAUCAUUCAGGUUGUGUUCCUGUCCCCAAAACAGAUCUACAAAAUAAUACCAAACCUGAAAGAUUCCAUGGAUUUACGGUG` is recorded as 0.294.
For `UCGUCGGUCUACCCCACUACCUCCAGGGUUUUGCUUUGUCCUUUUGUGACCGUUAGUCUCUAAGCUUUACCAGGAGCAGCCUGGGUUCAGCCAGUCAGUGACUGGUGGGU`, “RBNS enrichment (R)” read 0.2.
`UUUUGUAAUAAAUGUGUACAUUUUUUUUAAAUUUUGGACAUCACAUGAAUAAAGGUAUGUAUGUACGAAUGUGUAUAUAUUAUAUAUAUGACAUCUAUUUUGGAAAAUGU` — result for “RBNS enrichment (R)”: 0.665.
Under “RBNS enrichment (R)”, `CAAUAUUCAUUUGGUUGUGGAGACUGAUUUGCUGGGAGAAAUCUGUCCUGUUACUUUCUGGUCAUCCCAGGUUCUGACUUUUACCAGGGGCAAAAAAAAAAAAAGCAAGA` is recorded as 0.344.
`CACCAUAGAGUUCACACAAAAUUUUAGGCAGUGUUUCAAGAAGCACUCUUAUGUGUUGUUCUUUCAGCCCAUGCUCCAGGUCACCGGUUUUUAGGUAAACAUGACAUGAC`: “RBNS enrichment (R)” 0.35.
Under “RBNS enrichment (R)”, `GGAAGGGCCUGGACAGUGUCUUGGUUUCACUGUUUUAUUUUAUUUUAUUUUUUAACUAAAGCUAUAUAAAGCUUGUGGAUUAAACAGAAUAAAUUUCUAAAUUUAAGAAC` is recorded as 0.572.
Under “RBNS enrichment (R)”, `GACCAUGUGCAAUUCCCAGGUAAGGGUACCUCAGACCCUUCCUGUCCAUGUAGUUCCGACUGCAGCAGUGUCUUAACUGAGUAGUCCAUUAAAGUACAAGUUGAUCAUUG` is recorded as 0.311.
Under “RBNS enrichment (R)”, `AGGUUUUUAGGGGUCAAGGAGGCCUCUAGUGACACAGGAACAGCUGUGGCCCUUUUUUGAAGCUACUCUGACAUGUCCCAGAGCCCAAGGUUCUCAUUUCUCAGGUGGUG` is recorded as 0.297.
Under “RBNS enrichment (R)”, `UUCUAGCCACUCCACAAACCACUAAAAUUUUAGUUUUAGCCUAUCACUCAUGUCAAUCAUAUCUAUGAGACAAAUGUCUCCGAUGCUCUUCUGCGUAAAUUAAAUUGUGU` is recorded as 0.852.
`UCACGGGGAACACACAGCGUUAAGUGUCUUUCCUUUAUUUUUUAAAGAAUCAAUAGCAGCAUCUAAUCUCCCAGGGCUCCCUCCCACCAGCACCUGUGGUGGCUGCAAGU` — result for “RBNS enrichment (R)”: 1.13.
For `AUGGAGAGGAACAUGAGGAACAAUGAAUUCCAACAUAUGGCUUUAGAACAUCAGGAUGUUCUUGUAUUGGAUAUAGUAUCUAGUAUUCAAAAAUGCCUGCAUCUCUUAUU`, “RBNS enrichment (R)” read 1.46.
Under “RBNS enrichment (R)”, `AGUACGUUUUGUUGUACAUUUUAGUCUUGUUUACUUUCUCUUCAUUGUUAAGAGGAUGCGAACUGUACAGUUUCCAGCUAGUUACCCAUAUUAGAGAAGAAAUAAGAGAG` is recorded as 0.705.

Set 4
Target: Histone acetyltransferase KAT6A, winged helix 1, GST fusion (KAT6A, Homo sapiens, UniProt Q92794, residues 1-85)
Method: protein binding microarray
Molecule type: double-stranded DNA, one strand shown
Sample: in vitro
Tested at: not given
Setting: 8-mer, flanks averaged, mean of 2 arrays, mostly near background
Baseline: not given
Direction: higher = stronger binding
Residues (chain): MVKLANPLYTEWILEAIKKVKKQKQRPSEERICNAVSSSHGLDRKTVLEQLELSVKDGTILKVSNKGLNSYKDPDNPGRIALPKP
With `GAGATGAC` the E-score was -0.0801.
The E-score of `CCTGCAAA` is reported as -0.213.
The E-score of `ACGGTCCG` is reported as 0.304.
For `AACTGAAC`, the E-score was -0.0852.
The E-score of `ACGCTTCG` is reported as 0.162.
`AGCGGCCG` gave an E-score of 0.454.
The E-score of `AAGGTTTA` is reported as -0.198.
With `CGATAATA` the E-score was 0.00363.
With `CCAGTGCC` the E-score was -0.0948.
`CTCTCCGA` gave an E-score of 0.14.
`AAATATGC` has an E-score of -0.159.
`CTCTATTA` has an E-score of -0.2.
For `AGAGCAAT`, the E-score was -0.154.
With `ATAACGAC` the E-score was -0.07.
For `CCTGCTAG`, the E-score was -0.081.
`ATTCATAG` gave an E-score of -0.0805.
`ACGCGGAT` gave an E-score of 0.185.
The E-score of `CGTGGGGC` is reported as 0.022.
The E-score of `ACAAGCGA` is reported as -0.0674.
The E-score of `ATAGTGGG` is reported as -0.25.
With `GACCAGGC` the E-score was -0.112.
`ACAGTGGC` has an E-score of -0.0514.
For `GGTCACCA`, the E-score was -0.145.
`CCTTGAAC` gave an E-score of -0.0418.
`CTACTCGC` gave an E-score of 0.152.

A few entries again (set 2):
`AUUAUAGCAAAAAGAGCCAAGCAGUAGCAUUGUGGGGUUUUUUGUAAAUGUAAAAAUACUUAGAUCCAGACUUUGUUUCCUUCAAUUUUAAAAAUAAAAAAUACCUCAGUGCUAUGUUUU` has a bound/input enrichment of 0.649 ratio.
The bound/input enrichment of `CCCCGUUUUUAAAUGCUCUUUUGAUGCUUCCAGCAGCACCAUUUGUACAGUUUUUCUCUAAAAACAAAAAUGUUGAUUCAAAUUUCUUGUAUUUAAGUUUAAAUUGUUACAACAUUUUAG` is reported as 0.193 ratio.
The bound/input enrichment of `AAUUAUAGCAAAAGAGCCAAGCAGUAGCAUUGAGUUUUUUUUUAUAAAUGUAAAAUUAAUUAGAUUCAGACUUUGUUUCCUUAUUCAGUUUUAAAAAUAAAAAAUACCUCAGUGCUGUUU` is reported as 0.438 ratio.
